Measured values from different studies.
Cell line: OVCAR-4

The IC50 of COC(=O)/C=C1\C(=O)C=C2C3CC4CC(CCC4(C)N21)C3(C)NC(C)=O (centres unmarked) is reported as 21.1 µM (cell growth; NCI screen).
For Cn1cncc1C1=CN(c2ncnc3[nH]cnc23)CCS1, the GI50 was 42.7 µM (ovarian cancer).
For Cc1cc(C)n(C(=S)[S][Au][PH](CCCCCC[PH]([Au][S]C(=S)n2nc(C)cc2C)(c2ccccc2)c2ccccc2)(c2ccccc2)c2ccccc2)n1, the log10 TGI was greater than -4 (cell growth, NCI-60 screen; ovarian cancer).
CSc1nc(-c2ccc(Cl)cc2)c2c(NC(=O)c3ccccc3)nnc-2[nH]1 has a cell growth of 94.6% (SRB; 10 µM, NCI60 single-dose screen; reference: untreated).
COc1ccc(OC)c(-c2nc3ccc(-c4nc5ccc(N6CCN(C)CC6)cc5[nH]4)cc3[nH]2)c1 has a growth percent of 113% (SRB; 10 µM, 48 h).
The cell growth of Cc1cc(-c2ccccc2)n(-c2nc(-c3ccc(Cl)cc3)c3c(NC(=O)c4ccccc4)nnc-3[nH]2)n1 is reported as 104% (SRB; 10 µM, NCI60 single-dose screen; reference: untreated).
C#C[C@@]1(O)[C@@H](CO)O[C@@H](n2cc(F)c3c(N)ncnc32)[C@@H]1O gave a TGI of 8.67 µM (SRB; NCI-60 screen).
The GI50 of O=C(/C=C/C=C/C=C/C1CCCCC1)NC1=C[C@@](O)(/C=C/C=C/C=C/C(=O)NC2=C(O)CCC2=O)[C@@H]2O[C@@H]2C1=O is reported as 16.4 µM (cell growth, CellTiter-Glo; 78 h).
The growth percent of CCOc1ccc(-c2nc3cc(-c4nc5cc(N6CCN(C)CC6)ccc5[nH]4)ccc3[nH]2)cc1OCC is reported as 7.29% (SRB; 10 µM, 48 h).
Cc1n[nH]c2nc(-c3ccc(Cl)cc3)c3c(NC(=O)c4ccccc4)nnc-3n12 has a cell growth of 95.4% (SRB; 10 µM, NCI60 single-dose screen; reference: untreated).
For O=C1NCCc2[nH]c(-c3ccncc3)cc21, the IC50 was greater than 10 µM (MTS; NCI60 panel).
CCCN1CCN(c2ccc3[nH]c(-c4ccc5[nH]c(-c6ccc(OCC)c(OCC)c6)nc5c4)nc3c2)CC1 gave a growth percent of -59.9% (SRB; 10 µM, 48 h).
The cell growth of O=C(Nc1nnc2[nH]c(=S)[nH]c(-c3ccc(Cl)cc3)c1-2)c1ccccc1 is reported as 100% (SRB; 10 µM, NCI60 single-dose screen; reference: untreated).
With CCCCN1CCN(c2ccc3nc(-c4ccc5nc(-c6cc(OC)ccc6OC)[nH]c5c4)[nH]c3c2)CC1 the growth percent was 92.9% (SRB; 10 µM, 48 h).
C#C[C@@]1(O)[C@@H](CO)O[C@@H](n2cc(Br)c3c(N)ncnc32)[C@@H]1O gave a TGI of greater than 100 µM (SRB; NCI-60 screen).
With CCCCN1CCN(c2ccc3[nH]c(-c4ccc5[nH]c(-c6cc(OC)c(OC)c(OC)c6)nc5c4)nc3c2)CC1 the growth percent was 84.4% (SRB; 10 µM, 48 h).
NNc1nc(-c2ccc(Cl)cc2)c2c(NC(=O)c3ccccc3)nnc-2[nH]1 gave a cell growth of 99.9% (SRB; 10 µM, NCI60 single-dose screen; reference: untreated).

Repeated from above:
The cell growth of O=C(Nc1nnc2[nH]c(=S)[nH]c(-c3ccc(Cl)cc3)c1-2)c1ccccc1 is reported as 100% (SRB; 10 µM, NCI60 single-dose screen; reference: untreated).
With CCCCN1CCN(c2ccc3nc(-c4ccc5nc(-c6cc(OC)ccc6OC)[nH]c5c4)[nH]c3c2)CC1 the growth percent was 92.9% (SRB; 10 µM, 48 h).
